Assay results of several laboratories.
Every numbered part comes from another study and shows a few of its results, in no order.

Block 1
Target: RING finger protein unkempt homolog, zinc fingers 1-6, GST-SBP tag (UNK, Homo sapiens, UniProt Q9C0B0, residues 30-357)
Chain of UniProt Q9C0B0 (30-357, looked up): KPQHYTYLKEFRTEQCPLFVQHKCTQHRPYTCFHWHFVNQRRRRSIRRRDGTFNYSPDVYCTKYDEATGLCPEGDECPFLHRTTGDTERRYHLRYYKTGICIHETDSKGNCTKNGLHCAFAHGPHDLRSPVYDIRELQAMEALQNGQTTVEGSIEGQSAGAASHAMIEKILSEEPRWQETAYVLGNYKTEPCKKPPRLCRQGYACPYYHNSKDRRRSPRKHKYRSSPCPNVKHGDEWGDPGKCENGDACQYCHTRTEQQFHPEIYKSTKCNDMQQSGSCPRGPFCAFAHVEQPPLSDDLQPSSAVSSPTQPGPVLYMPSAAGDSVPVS
Method: RNA Bind-n-Seq
Molecule type: RNA
Medium: in vitro
Concentration: not given
Setting: RNA with constant flanks, human and mouse sites, ends assumed
Baseline: input RNA pool
Direction: higher = stronger binding
Endpoint: bound/input enrichment
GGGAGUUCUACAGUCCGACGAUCUUAAUUUUUUUAAUUUUUUUAUUUUUUAUUUUCUUUUUGGUUUGGGGAGGGAGAAAAGUUCUUAGCACAAAUGUUUUACAUAAUUUGUACCAAAAAAAAAAAAAAAGGAAAGGAAAGAAACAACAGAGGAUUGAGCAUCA: 3.42 ratio
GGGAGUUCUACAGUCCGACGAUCGGCUGUGGAAUUAGUCCAGAGAUUCAUUGCGAUGGUGGCCACACCUUCAGACCGCCUUCUGUUAGUAACUACUGCAUCUGUGACAUUACAAAUGGCAAUCACAGUGUGGAUGAGAUGCAACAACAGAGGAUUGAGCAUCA: 0.118 ratio
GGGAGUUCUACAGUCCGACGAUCUUGAAAGCUGAGAAAGACAAUGCUGAGAUAAGAGUCCACACAGUUGAGGAUUAUCAGGCAAUUGUUGAUGCUGAGUGGAACAUUCUCUAUGACAAGUUAGAGAAGAUCCAUCAUUCUGGACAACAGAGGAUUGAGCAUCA: 0.109 ratio
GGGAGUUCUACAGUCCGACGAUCGCGGCUUUUUACCUUCUCUCUACGCUAGGAGGAUACUUGGUGACCUCAUUCUUGUUGCUUAAAUACCCGACCUUGCUGCACCAGAGAAAGAAGCAGCGAUUCCUCAGUAAACACAUCUCUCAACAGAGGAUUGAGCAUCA: 0.111 ratio
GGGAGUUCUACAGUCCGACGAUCAAACUCUCUAGCAAAACGACUGCUAAGUUAUCCACUAGUGCUAAAAGAAUUCAGAAGGAGCUAGCAGAGAUAACCCUUGAUCCUCCUCCUAACUGCAGUGCUGGGCCUAAAGGAGAUAACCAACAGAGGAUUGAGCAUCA: 0.396 ratio
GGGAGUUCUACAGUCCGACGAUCAAGCACUUACAACUUAGCACUAGUCAUCUGUGUCUCCUGGGAGUUUUCUGAUUGGCCGGAUAUGACAGCUUUUGGUUAAACCCUGAGUCUUGAGACUGAGGAAAAGCUGUGUGUCUAUAGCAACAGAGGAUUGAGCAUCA: 0.411 ratio
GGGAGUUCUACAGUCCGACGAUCGAAAGAACUGUUCCAAGAAUAUUUGUCAAUGGUACUUUUAUUGGAGGUGCAACUGACACUCAUAGGCUUCACAAAGAAGGAAAAUUGCUCCCACUAGUUCAUCAGUGUUAUUUAAAAAAACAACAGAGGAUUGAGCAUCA: 8.36 ratio
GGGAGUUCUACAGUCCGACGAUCUAACAUUUUUUUAAAAUAUUGAUUGAUUGAUUGAUUGAUUCUAUGUAUGUGAGUACACUGUAGCUGUACAGAUGGUUGUGAGCCUUCAUGUGGUUGUUGGGGAUUGAAUUUUAGGACCUCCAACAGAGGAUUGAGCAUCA: 1.33 ratio
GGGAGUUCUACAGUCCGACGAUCAGGCAGGGCAGUCGCCUGGUGGAGAUCUGCAAGGUGGCGGUAGCCACUCUGAGCCAUGAGCAGAUGAUCGACCUCCUGAGAACAUCUGUCACGGUGAAGGUUGUCAUCAUUCCCCCGCAUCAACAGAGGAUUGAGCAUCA: 0.117 ratio
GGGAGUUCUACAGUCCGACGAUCGGACUAGAAGGGGAAGAUGAAGGAGCCAUAAGUAUGCUUUCUGACAAUACCGCUAAGCUAACAUCAGCUGUUAGUUCUUUGCCAGAACUCCUUGAGAAAAAAAGACUUAUUGAUCUCCAUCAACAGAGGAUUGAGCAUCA: 0.11 ratio
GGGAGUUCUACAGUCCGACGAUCGAUCAAGCUAGAUCAGCAUUCUCUAACUUGUUUGGUGGAGAACCAUUGUCAUAUACCCGGUUCAGCCUGGCUCGGCAAGUAGAUGGCGAUAACAGUCAUGUGGAGAUGAAACUUGCUGUACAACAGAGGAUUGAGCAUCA: 0.153 ratio

Block 2
Target: Histone acetyltransferase KAT6A, winged helix 2, GST fusion (KAT6A, Homo sapiens, UniProt Q92794, residues 85-181)
Method: protein binding microarray
Molecule type: double-stranded DNA, one strand shown
Medium: in vitro
Concentration: not given
Setting: 8-mer, flanks averaged, mean of 2 arrays, mostly near background
Baseline: not given
Direction: higher = stronger binding
Endpoint: E-score
Target sequence (chain): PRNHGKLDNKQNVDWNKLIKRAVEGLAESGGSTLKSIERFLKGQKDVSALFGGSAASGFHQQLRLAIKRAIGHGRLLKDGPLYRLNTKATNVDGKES
GATTTCAA: 0.00945
AATAGATT: 0.0645
ATCACCTA: -0.209
ACGAGCTG: -0.00803
CGTCAATC: -0.0979
ATAGCTAT: -0.0511
AAGATCAA: 0.0364
CCAGAGAC: 0.0122
CCTAACGA: -0.042
CAACTAGC: 0.148
AGCGTGAA: -0.0917
CCTGTGGC: 0.0926
AAGATCGG: 0.0297
ACACGCCA: 0.132
GGTTATAA: -0.121
ACCCTTCG: 0.0678
CCAAGTGG: 0.102
TTTGCAAA: 0.156
CCAAACGC: -0.0114
GGTGGACA: 0.0261
ACGGCCAC: 0.113
CCGACACG: 0.0316
TATGGAAA: 0.00443
AACGTAAG: -0.125
CCCGTTTA: -0.00874

Block 3
Target: RNA binding protein fox-1 homolog 2, RRM domain, GST-SBP tag (RBFOX2, Homo sapiens, UniProt O43251-10, residues 100-194)
Method: RNA Bind-n-Seq
Molecule type: RNA
Medium: in vitro
Concentration: 365 nM
Setting: natural RNA segment, single round, ends assumed
Baseline: no-protein control
Direction: higher = stronger binding
Endpoint: RBNS enrichment (R)
Construct (chain): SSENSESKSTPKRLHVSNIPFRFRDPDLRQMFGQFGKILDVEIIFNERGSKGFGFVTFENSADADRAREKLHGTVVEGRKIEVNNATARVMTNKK
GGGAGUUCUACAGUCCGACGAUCCUCUUCUGCACAUUUCCAUAUCUAGAGAUGGAUAGUCCUGAACUUGACGUCACACCCACAGGUGAAACAGCCCGAAGUCAAGGCCUUGCUAGUAAAUGGAGCUUUGUACAUGGAAUUCUCGGGUGCCAA: 1.23
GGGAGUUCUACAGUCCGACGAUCCUUUUUUGGAUCACUAAGGACUAUGACCUCUGAGUAACCUGAUGACCUGAGAAAGAGUAAGGAGGCCAGGCAGGGCCUUGGGCCCAGGAACAGGUACCUUGAGAGUGAGAUGGAAUUCUCGGGUGCCAA: 0.675
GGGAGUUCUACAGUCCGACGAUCGCAGAGGCCAUUUUGUUGUUUGUUUGAUGCUGAAGCUGUUGUUAAAAUGCCCCAAACUCCAAGGCAGAUUGUCUGUAUAAUACGCUAUAGCUUUUCACCAUGUGGUGUUUUGGAAUUCUCGGGUGCCAA: 1.03
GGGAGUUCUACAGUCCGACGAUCAGUCGGAACAGCAGAUAACAAUGCAGCAAGGCCCUGCUGCCCAAUCUCCAUCUGUCAACAGGGGCGUGAGGUCCCAGGAAGUGGCCAAAAGCUAGACAGAUCCCCGUUCCUGGAAUUCUCGGGUGCCAA: 0.316
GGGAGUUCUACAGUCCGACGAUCCCCAAGUCAGGAAGACCAUUAAGAAUAGGAGGAGAGGGCUCUGCCUCAACUUUCCUAGGAAAGAGCCCACCUCGGAGAUAGCUACGGUUUUCUCUGGUGGAGAUGGUGAGUGGAAUUCUCGGGUGCCAA: 0.288
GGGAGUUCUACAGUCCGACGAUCUUUUAAAAUAGAGCUUUGUAUACUAUGUAAGCAGUUUUAUAUCAGCUUUGUAAAAGCUUUGGUGUUAAGAGUCAAUAUUUUUUGGCUUUGUAGAUAAAGACUUAAAUUUUUGGAAUUCUCGGGUGCCAA: 0.547
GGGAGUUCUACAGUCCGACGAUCCUGUCUUCCUCAUUGCACUGCAAUGGGCAGGGGUAGGAGAUUGGAGAUAAGGAUGAAGGGGGAGGAAAGGGUCCCUGGAGGCCUGUGCAUCUAUGCUCUGUUACAAGUGCUGGAAUUCUCGGGUGCCAA: 0.584
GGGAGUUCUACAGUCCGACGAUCUUUAAUAAGAAAAACUUGAAGUUUAGGAGCUUAAAAGACUUAGCCUGAGGCAGAAGGAGGUGAGCACUUAAUCCUUUGAGCCAUGCGGUCUCUUUUACAGUCUAGAAACUUGGAAUUCUCGGGUGCCAA: 0.442
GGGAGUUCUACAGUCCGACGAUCGAGAGUGAAGGAGACGGAGAAACGCGCCCCAUCCCUUCCGCCGCCUCCUUUCCCCCCCGACCCUAUUCAGGUUUUAAGUCAAAAAUGUCGAUAUGUCAUUAUGCACUUUAUGGAAUUCUCGGGUGCCAA: 0.349

Block 4
Target: Ras GTPase-activating protein-binding protein 1, full length (G3BP1, Homo sapiens, UniProt Q13283)
Chain of UniProt Q13283 (whole entry, looked up): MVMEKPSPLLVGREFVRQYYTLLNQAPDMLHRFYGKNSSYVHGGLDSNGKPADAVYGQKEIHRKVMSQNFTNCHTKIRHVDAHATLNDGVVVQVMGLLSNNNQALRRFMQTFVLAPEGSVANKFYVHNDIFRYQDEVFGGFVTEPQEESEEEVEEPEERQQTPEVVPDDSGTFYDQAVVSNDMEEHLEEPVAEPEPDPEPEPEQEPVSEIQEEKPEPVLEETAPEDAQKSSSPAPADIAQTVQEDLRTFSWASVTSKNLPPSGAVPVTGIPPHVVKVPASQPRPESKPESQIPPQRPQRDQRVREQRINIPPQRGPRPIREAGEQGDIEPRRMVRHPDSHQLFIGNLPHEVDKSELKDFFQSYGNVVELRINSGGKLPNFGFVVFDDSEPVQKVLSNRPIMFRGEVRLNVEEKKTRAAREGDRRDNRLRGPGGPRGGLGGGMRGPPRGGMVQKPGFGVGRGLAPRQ
Method: RNA Bind-n-Seq
Molecule type: RNA
Medium: in vitro
Concentration: 200 nM
Setting: whole 134-nt RNA, ends assumed
Added: 150 mM LiCl
Baseline: input library
Direction: higher = stronger binding
Endpoint: log2 enrichment
All molecules: 7-deaza-guanosine replaces G
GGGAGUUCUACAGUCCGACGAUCUCCUGUGCUACACAUCGUAUGUACCGAAUCGGGGAAAAAGGGGUUUGGGGUUUUUGGGGAAAGUAUUAUGUUACGCCGUUCGGAUCUGCAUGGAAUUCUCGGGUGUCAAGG: -0.764
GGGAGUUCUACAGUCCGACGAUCCACAGACAACACGCACCCACACAGACACAGAGGGAAGGGGUUGGGAUGGGGACAGGGUGCACAGCAGGGCGGGGUAGGACCCCAGCCCGUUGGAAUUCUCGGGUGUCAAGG: -0.607
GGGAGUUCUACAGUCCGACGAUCACCAUGCAGGUGGGCAUCUUUGGGAAGUGGGGCAAGGGGGGGAUAGGGAGGGGGGUAACACUUUGGGAACAGGUAGUCCCAGGUCGUUUCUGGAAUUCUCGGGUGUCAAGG: 0.118
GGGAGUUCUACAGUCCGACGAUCCCUCAAGUCCUGUGCUACACAUCGUAUGUACCGAAUCGGCCGGGCCGGCCGGAAAGUAUUAUGUUACGCCGUUCGGAUCUGCACUUCCAGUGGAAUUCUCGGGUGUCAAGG: -0.127
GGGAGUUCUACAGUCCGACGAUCAAGUCCUGUGCUACACAUCGUAUGUACCGAAUCGGGUUUUUGGGUUUGGGAAAGGGAAAGUAUUAUGUUACGCCGUUCGGAUCUGCACUUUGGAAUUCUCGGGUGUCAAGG: -0.742
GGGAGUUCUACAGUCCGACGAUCUCCUGUGCUACACAUCGUAUGUACCGAAUCAAAUUUUUUUAAACCCAAAUUUUUUUAAAAAAGUAUUAUGUUACGCCGUUCGGAUCUGCAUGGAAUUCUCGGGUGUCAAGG: -1.78
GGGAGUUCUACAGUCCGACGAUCGCAGGAAGUAAAAACAAAUGGAAAUGCUUCGGAUAGUGGCAGGGGUAGGGGUUGCUAAGGAAAGGGUGGGAUGGGAGUGGGUAAAGAGUUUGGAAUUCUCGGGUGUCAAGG: 0.303
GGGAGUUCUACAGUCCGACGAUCGCAGGAAGUAAAAACAAAUGGAAAUGCUUCGGAUAGUGGCAGGGGUGGGGGUUGCUAAGGAAAGAGUGGGAUGGGAGUGGGUAAAGAGUUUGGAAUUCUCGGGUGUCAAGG: 0.202
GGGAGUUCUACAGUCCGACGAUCCUCAAGUCCUGUGCUACACAUCGUAUGUACCGAAUCGGGGAAGGAAGGGAAGGAAAGUAUUAUGUUACGCCGUUCGGAUCUGCACUUCCAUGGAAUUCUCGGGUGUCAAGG: -0.806
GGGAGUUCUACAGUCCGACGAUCCACAGACAACACGCACCCACACAGACACAGAGGGAAGGGGUUGGGAUGGGGACAGGGUGCACUGCAGGGCGGGGUAGGACCCCAGCCCCUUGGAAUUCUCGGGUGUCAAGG: -0.393
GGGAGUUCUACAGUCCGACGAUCUGGCCCUGGUGGUAUGCGGGGAGGAAGAGGUGGCCUCAUGGAUCGUGGUGGUCCCGGUGGAAUGUUCAGAGGUGGCCGUGGUGGAGACAGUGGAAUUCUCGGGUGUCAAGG: 0.651

A few entries again (block 2):
ACGGCCAC: 0.113
CCGACACG: 0.0316
TATGGAAA: 0.00443
AACGTAAG: -0.125
